Measured values of several laboratories.
Protocols differ between the studies behind these lines. Values joined by “and” are separate records of one study, mostly repeats; a detail may differ. ± gives the spread as reported.

`CCOCc1nc(O)c(-c2nnc(Cc3ccc(Cl)cn3)o2)c(O)c1-c1c(OC)cccc1OC` gave an MAP change of -1.9 ± 0.5% (instrumented anaesthetised rat; intravenous infusion, 10 µg/kg/min for 15 min, 15 min; reference: baseline).
Under “change from baseline in serum IgM”, `CC#CC(=O)N[C@H]1CCCN(c2c(F)cc(C(N)=O)c3[nH]c(C)c(C)c23)C1` is recorded as 0 mg/L (healthy volunteers, single ascending dose, serum; 30 mg, day 10).
For `C=C1CC[C@H](OCCCNC(=O)CCOCCOCCOCCOCCOCCOCCOCCOCCOCCOCCOCCOCCOCCOCCOCCOCCOCCOCCOCCOCCOCCOCCOCCOCCOCCOCCOCCOCCOCCOCCOCCOCCOCCOCCOCCOCCNC(=O)CCN2C(=O)CC(SC[C@H](NC(=O)[C@H](CCCNC(=N)N)NC(=O)[C@@H]3CCCN3C(=O)[C@H](CCC(N)=O)NC(=O)[C@H](CC(C)C)NC(=O)[C@H](CCCCN)NC(=O)[C@H](C)NC(=O)[C@@H]3CCCN3C(=O)[C@@H]3CCCN3C(=O)[C@H](CCCCN)NC(=O)[C@H](CCCCN)NC(=O)[C@H](CO)NC(=O)[C@H](CCC(=O)O)NC(=O)[C@H](CCCCN)NC(=O)[C@H](CCCNC(=N)N)NC(=O)[C@H](CCC(N)=O)NC(=O)[C@H](CCC(N)=O)NC(=O)[C@@H](NC(=O)[C@H](CCCNC(=N)N)NC(=O)[C@H](CCC(N)=O)NC(=O)[C@H](Cc3c[nH]cn3)NC(=O)[C@H](CCC(=O)O)NC(=O)[C@@H]3CCCN3C(=O)[C@H](CO)NC(=O)[C@H](CC(C)C)NC(=O)[C@H](Cc3ccccc3)NC(=O)[C@H](CNC(=O)CCCCCCC)NC(=O)[C@H](CO)NC(=O)CN)C(C)C)C(=O)O)C2=O)C/C1=C/C=C1\CCC[C@]2(C)[C@@H]([C@H](C)CCCC(C)(C)O)CC[C@@H]12` (stereo partly shown), mRNA level read “no effect” (real-time RT-PCR, item: Tnf and Ccl2; mice, LLC tumour-bearing, gastrocnemius/plantaris muscle; daily or every other day; reference: pair-fed).
`CC(C)(C)c1cc(C(C)(C)C(=O)O)c(O)cc1NC(=O)c1c[nH]c2ccccc2c1=O` — result for contraction AUC: “no effect” (isolated rat colon; 1 nM to 10 µM).
Under platelet aggregation, `O=C(O)c1cc(N2N=C(C(F)(F)F)/C(=C/c3ccc(-c4ccccc4)o3)C2=O)ccc1Cl` is recorded as “inhibited” (platelets, Ero1α knock-out, mouse; 3 to 10 µM).
`CCCCCCCC(=O)c1c(OC)cc(OC)cc1C(=O)OC`: “reduction of DNA damage” at most 33.8% (comet; male Swiss mice; dose not given, with: cyclophosphamide).
`Cc1cn(-c2cc(NC(=O)c3ccc(C)c(Nc4nccc(-c5cccnc5)n4)c3)cc(C(F)(F)F)c2)cn1` — result for “median difference in change”: -2.49 (item: total tau; human, cerebrospinal fluid; dose not given, between 12 and 6 months, unit not given; reference: placebo).
Under “log2 fold change”, `c1ccc(-c2n[nH]cc2-c2ccnc3ccccc23)nc1` is recorded as 1.18 (kinase binding, competitor, MIB/MS competition, item: HSL1; Candida albicans cell lysate; 1 µM; reference: DMSO).
`CC(C)[C@H](C(=O)Nc1ccc(C(=O)NO)cc1)c1ccccc1` — result for “tumour growth rate”: 10 %/year (volumetric MRI; human, right C1 intradural meningioma; dose not given, day 809).
`CC1(C)CCC(c2ccc(Cl)cc2)=C(CN2CCN(c3ccc(C(=O)NS(=O)(=O)c4ccc(N[C@H](CCN5CCOCC5)CSc5ccccc5)c(S(=O)(=O)C(F)(F)F)c4)cc3)CC2)C1` gave an EC50 of 63 nM (cell kill; primary neoplastic T lymphocytes, dog 17; 24 h, T-cell CLL).
For `CN[C@@H]1COc2c(S(=O)(=O)NC(=O)Nc3c4c(cc5c3CCC5)CCC4)cnn2C1`, the inhibition was 45.9% (item: IL-1β; human participants, whole blood ex vivo; 1800 mg single dose, 72 h, with: LPS/ATP; reference: baseline).
`Cc1cc([C@H]2C[C@H]3[C@@H](CF)SC(N)=N[C@@]3(c3ccc(F)cc3F)CO2)on1` gave an Aβ42 level of 0.57 ng/g (item: Aβx-42; Mus musculus wild-type, brain; subcutaneous, 30 mg/kg, 9 h).
Under “protein level change”, `O=C(COc1ccc(Cl)cc1)NC12CC(c3nnc([C@H]4C[C@@H](OC(F)(F)F)C4)o3)(C1)C2` is recorded as -86.9% (item: ATF4; PBMC ex vivo stimulated, human ALS patients; 200 mg, D21 predose; reference: baseline).
For `Cc1coc([C@H]2C[C@H]3[C@@H](CF)SC(N)=N[C@@]3(c3ccc(F)cc3F)CO2)n1`, the Aβ42 level was 0.52 ng/g (item: Aβx-42; Mus musculus wild-type, brain; subcutaneous, 80 mg/kg, 5 h).
With `CC1(C)CCC2(CC1)N[C@@H](C(=O)N[C@@H]1CC[C@@H](C(N)=O)OC1)[C@H](c1ccnc(Cl)c1F)[C@]21C(=O)Nc2cc(Cl)ccc21` the non-evaluable patients was 33.3% (human, solid tumours; 120 mg/day, RECIST; reference: patients).
For `C[C@H](Oc1ccc(Br)cc1-c1ccon1)C(=O)O`, “difference from placebo” read 14.4% (first response peak; human, tibialis anterior muscle; 100 mg, 30-15 Hz, SAD).
For `O=C(O)CNC(=O)Cc1ccccc1`, the sarcomere length was 1.72 µm (ventricular cardiomyocytes, C57BL/6 mouse; dose not given, 0.048 s).
With `O=C(/C=C/c1ccc(O)c(O)c1/C=C/c1ccc(O)c(O)c1)O[C@H](Cc1ccc(O)c(O)c1)C(=O)O` the LVP was 19.9 mmHg (isolated myocardial tissue; 10 µM).
For `COc1ncc(-c2nc3c(n2C(C)C)[C@H](c2ccc(Cl)cc2)N(c2cc(Cl)cn(C)c2=O)C3=O)c(OC)n1`, “best overall response” read 8.3% (antileukemic activity, item: treatment failure, indeterminate cause; human, acute myeloid leukaemia; 350 to 400 mg, high-dose, other doses).
For `C=CCn1c(=O)c2cnc(Nc3ccc(N4CCN(C)CC4)cc3)nc2n1-c1ccc2c(n1)[C@@](O)(CC)CC2`, “tumour growth inhibition” read 29.5% (Rh30 xenograft, BALB/c nude mice; oral, 80 mg/kg once daily x 21, day 18; reference: vehicle).
`CC(C)c1c(C(=O)Nc2ccccc2)c(-c2ccccc2)c(-c2ccc(F)cc2)n1CC[C@@H](O)C[C@@H](O)CC(=O)O` gave an LDL-C of 42.6 mg/dL (cynomolgus monkey, male, serum; 40 mg/kg or 25 mg/kg, day 86, 2064 h).
`COc1nc(NCc2cn(-c3ccc(C(=O)Nc4ccc(C(F)(F)F)cc4)cc3)nn2)nc(OC)n1` — result for “maximum non-toxic concentration”: 43.4 ± 0.87 nM (MTT; normal colonocytes, rat; 72 h).
For `C[C@@H](Nc1cc(F)cc(F)c1)c1cc(C(=O)N(C)C)cc2c(=O)cc(N3CCOCC3)oc12`, “change in pPRAS40 level” read -13.4% (immunohistochemistry; human, tumour biopsy; 120 mg twice daily continuous, day 13, 312 h post-dose; reference: baseline).
`OC(CCN1CCCCC1)(c1ccccc1)C1CC2C=CC1C2` (stereo not shown): “EEG Beta2-power Pz-O2” 1.1 µV² (resting-state EEG; healthy elderly humans; oral, 2 mg, eyes closed, LS mean).
Under “log2 fold change”, `Cc1n[nH]c2ccc(-c3cc(OC[C@@H](N)Cc4ccccc4)cnc3-c3ccoc3)cc12` is recorded as 0.0618 (kinase binding, competitor, MIB/MS competition, item: MCK1; Candida albicans cell lysate; 1 µM; reference: DMSO).
For `CSCCNc1nc(SCCC(F)(F)F)nc2c1ncn2[C@@H]1O[C@H](COP(=O)(O)OP(=O)(O)C(Cl)(Cl)P(=O)(O)O)[C@@H](O)[C@H]1O`, the inhibition was 15.6 ± 14.5% (platelet aggregation, light transmission aggregometry; human patients, platelet-rich plasma; dose not given, 30 min, with: TRAP 15 µM).
`COc1cc(Nc2ncc3c(n2)-c2ccc(Cl)cc2C(c2c(F)cccc2OC)=NC3)ccc1C(=O)O` — result for “relative tumour volume T/C”: 0.9 (mouse, NB-1643 neuroblastoma xenograft; oral, 10.4 mg/kg, day 14; reference: vehicle).
With `C[C@H]1O[C@@H](O[C@H]2CC[C@@]3(C)[C@@H](CC[C@]4(C)[C@@H]3C=C[C@]35OC[C@@]6(CCC(C)(C)C[C@H]63)[C@@H](O)C[C@]54C)[C@]2(C)CO)[C@H](O)[C@@H](O[C@@H]2O[C@H](CO)[C@@H](O)[C@H](O)[C@H]2O)[C@H]1O` the liver index was 3.56% and 3.83% and 4.02% and 4.59% and 4.41% and 4.35% (chronic-plus-binge ethanol-fed mice; oral, 10 mg/kg/day, 7 d; reference: body weight).
Under “percent change from baseline”, `C[C@H]1C[C@H]2CSC(N)=N[C@@]2(c2nc(NC(=O)c3ccc(OC(F)F)cn3)cs2)CO1` is recorded as -38.8% (item: Aβx-40; healthy adults, plasma; 40 mg single dose, 48 h post-dose; reference: placebo).
For `Cc1cc(F)cc2c(CCC(=O)N[C@@H]3C(=O)NC[C@H]3O)c(-c3ccc(F)cc3)[nH]c12`, “urine albumin/creatinine ratio” read 1230 µg/mg and 1510 µg/mg and 6310 µg/mg and 968 µg/mg and 2720 µg/mg (APOL1 G2 mice, IFNγ-induced; 30 mg/kg twice daily, day 8).
The median inhibition of `NCC(=O)Nc1cncc(-c2nn3c(=O)cc(N4CCNCC4)nc3s2)c1` is reported as 41.4% (ADP-induced platelet aggregation, light transmission aggregometry; human, stable CAD on aspirin, platelets ex vivo; subcutaneous, 0.075 mg/kg, 5 min post-dose, with: ADP 20 µM).
For `NC(=O)c1cnc2[nH]ccc2c1N[C@@H]1[C@@H]2CC3C[C@H]1C[C@@](O)(C3)C2`, the percent change was 0.25% (CD8+ effector memory T cells, flow cytometry; Caucasian humans, peripheral blood; 200 mg single dose; reference: baseline).
With `O=C(OC(C(F)(F)F)C(F)(F)F)N1CCN(Cc2cccc(Oc3ccccc3)c2)CC1` the k4 was 0.0776 min⁻¹ (PET blocking study; rhesus monkey, brain CB; 0.01 mg/kg, compound pretreatment, with: [18F]T-401 tracer).
For `COc1ccc(-c2cncc(N[C@@H](C)c3cccc(NC(=O)c4cncc(C)c4)c3)n2)cc1OC`, “delta delta Ct” read -0.884 (item: rno-miR-141-3p; rat SU5416/hypoxia model, lung; dose not given, unit not given; reference: SU5416/hypoxia vehicle).
`COc1cc2cc(-c3ccc(CC(=O)Nc4cc(C(C)(C)C(F)(F)F)no4)cn3)cnc2cc1OC`: “disease control rate” 86% (human RET-mutant medullary thyroid cancer; 75 mg, phase I, RECIST 1.1).
`CCCCC1(CCCC)CN(c2ccccc2)c2cc(SC)c(OCC(=O)N[C@@H](C(=O)NCC(=O)O)c3ccccc3)cc2S(=O)(=O)C1` gave a plasma C4 of 70 ng/mL (item: 7α-hydroxy-4-cholesten-3-one; human, plasma; 15 mg once daily, day 5).
`C[C@@H](NC(=O)N1C(=O)[C@H](Cc2ccnc(N)c2)[C@H]1C(=O)O)C1CCCCC1` gave an ACT Emax of 1.05 (human; iv infusion, 0.6 mg/kg/h, 24 h, unit not given; reference: baseline).
The maximum induction of `Cc1noc(C)c1-c1cc(C(O)(c2ccccn2)c2ccccn2)c2nc(C3CC3)[nH]c2c1` is reported as 63% (item: HEXIM1 expression; human patients, peripheral blood; dose not given, day 1, 24 h, with: enzalutamide 6 mg).
For `CCN1CCN(Cc2ccc(Nc3ncc(F)c(-c4cc(F)c5nc6n(c5c4)[C@H](C)CCC6)n3)nc2)CC1`, “disease control rate” read 100% (human advanced solid tumours; 200 mg, phase Ia monotherapy RECIST 1.1).
`N#Cc1ccc2c(-c3ccncc3)c(-c3ccc(F)cc3)nn2c1`: “log2 fold change” -0.881 (kinase binding, competitor, MIB/MS competition, item: TOR1; Candida albicans cell lysate; 100 nM; reference: DMSO).
`CC[C@@H](C)[C@@H](NC(=O)[C@@H](Cc1ccc(O)cc1)NC(=O)[C@H]1CCCN1C(=O)[C@@H](CCCNC(=N)N)NC(=O)[C@H](N)Cc1c[nH]cn1)C(=O)N[C@H](C)C(=O)N[C@H](Cc1c[nH]cn1)C(=O)N[C@H](CCCNC(=N)N)C(=O)N[C@@H](C(=O)N[C@H](Cc1ccc(O)cc1)C(=O)N[C@H](CO)C(=O)N[C@H](Cc1ccccc1)C(N)=O)C(C)C`: “IFN-γ+ CD8+ T cell frequency” 7.47% and 6.04% and 8.44% (ex vivo flow cytometry; GL261-Luc brain tumour mice, tumour; dose not given).
`CN(C(=O)n1cnc(-c2ccc[n+]([O-])c2)c1)C1CCCCC1`: “peak OEA level” 2.1 ± 0.2 nmol/g (rat, brain; 10 mg/kg, 4 h).
`N#Cc1ccn2c(-c3ccncc3)c(-c3ccc(F)cc3)nc2c1` — result for “log2 fold change”: -0.0593 (kinase binding, competitor, MIB/MS competition, item: ENV7; Candida albicans cell lysate; 100 nM; reference: DMSO).
`N=C(N)NCCC[C@H](NC(=O)[C@H](CCCNC(=N)N)NC(=O)[C@H](CCCCN)NC(=O)[C@H](CCC(N)=O)NC(=O)[C@H](CCCCN)NC(=O)[C@H](Cc1ccc(O)cc1)NC(=O)[C@@H](N)CCCCN)C(=O)N[C@@H](CO)C(=O)N[C@@H](Cc1ccc(O)cc1)C(=O)N[C@@H](CCCCN)C(=O)O`: “cold water VAS change” -38.3 ± 18.6 mm (dentin hypersensitivity patients; 2.5 µg/tooth single, day 22, higher-VAS tooth; reference: baseline).
For `CC(C)NCC(O)c1ccc(O)c(O)c1` (stereo not shown), the sarcomere length was 1.53 µm (ventricular cardiomyocytes, C57BL/6 mouse; dose not given, 0.232 s).
For `COc1nc(NCc2cn(-c3ccc(C(N)=O)cc3)nn2)nc(OC)n1`, “maximum non-toxic concentration” read 4.57 ± 0.18 nM (MTT; normal colonocytes, rat; 72 h).
